Results of several laboratories.
A part holds a random share of what one study measured. Substitutions count along the parent as printed.

Study 1
Target: Histone acetyltransferase KAT6A, both winged helices, GST fusion (KAT6A, Homo sapiens, UniProt Q92794, residues 1-181)
Technique: protein binding microarray
Molecule type: double-stranded DNA, one strand shown
Matrix: in vitro
Concentration: not given
Setting: 8-mer, flanks averaged, mean of 2 arrays, mostly near background
Relative to: not given
Direction: higher = stronger binding
Endpoint: E-score
Target sequence (chain): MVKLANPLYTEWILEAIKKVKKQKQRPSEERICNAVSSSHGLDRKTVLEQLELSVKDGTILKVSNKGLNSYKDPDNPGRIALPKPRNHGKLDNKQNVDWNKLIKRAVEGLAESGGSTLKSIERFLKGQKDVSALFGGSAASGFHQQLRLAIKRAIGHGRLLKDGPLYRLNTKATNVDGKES
AGAAACTA: -0.148
GGGAGACA: -0.0237
CCTAAAGG: -0.0838
CTGCGTCC: -0.00971
CACCGGGG: 0.102
GTCGACGA: 0.0636

Study 2
Target: RING finger protein unkempt homolog, zinc fingers 1-6, GST-SBP tag (UNK, Homo sapiens, UniProt Q9C0B0, residues 30-357)
UniProt Q9C0B0, sequence (30-357, looked up): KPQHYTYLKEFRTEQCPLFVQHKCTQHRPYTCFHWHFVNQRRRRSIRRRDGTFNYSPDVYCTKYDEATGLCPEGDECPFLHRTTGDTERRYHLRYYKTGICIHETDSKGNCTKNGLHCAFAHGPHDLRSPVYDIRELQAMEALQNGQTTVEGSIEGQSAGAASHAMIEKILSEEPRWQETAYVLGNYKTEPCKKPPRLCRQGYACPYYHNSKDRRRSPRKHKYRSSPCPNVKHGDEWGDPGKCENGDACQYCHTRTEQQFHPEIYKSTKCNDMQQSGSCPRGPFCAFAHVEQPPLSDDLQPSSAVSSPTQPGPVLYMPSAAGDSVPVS
Technique: RNA Bind-n-Seq
Molecule type: RNA
Matrix: in vitro
Concentration: not given
Setting: RNA with constant flanks, human and mouse sites, ends assumed
Relative to: input RNA pool
Direction: higher = stronger binding
Endpoint: bound/input enrichment
Constant ends, left off below: GGGAGUUCUACAGUCCGACGAUC … CAACAGAGGAUUGAGCAUCA
ACAAAGCAAGCAGCCUUUAAAGCUGUCCCUGAAGUGUGUCGCAUUCCGACCCACCUCUUCACUUUUAUCCAGUUUAAGAAAGACCUGAAGGAGAGCAUGAAGUGUGGCAUGUGGGGUCGC: 0.174 ratio
AGUAUAUGUAAAUGUCUGUUUUUCAUAAUUGCUCUUUAUAUUGUGUGUUAUCAGACAAGAUAGUUAUUUAAGAAACAUGGGAAAUGCAGAAAUGACUGCAGUGCAGCAGUAAUUAUGGUG: 2.19 ratio
ACAGAGCCUCUUGUCCCACCUUUGUCCCCUGGCUGCUGCCCUCCCAUUCUCCCCCUCCAGUAGUAGCUGGGUGAGACCUGUCCGCCCACCUUCCCUCCACUACAGAACCUGCAGCCGCAA: 0.594 ratio
UCCCUCCCUCCAGCCCUCACCGGCCAUGGGACUCCUGGGGGGACAUCUGUAUUCGGUGGUGUUUUCCCAACGUUGACCUCUCCUCUUUAAUCGCUCCUGUAAGCCCUGGGCAAAAGCUGC: 0.335 ratio
UCCCCUACUAGUGACCUCAUGCUGGCCAGUGUUCUGUGGGACAGAGGAGGAUCAAGUUUCUACACCCUGACGAGUUCAAACAUCAGCAAAUGGGAACUGGACGAUUCUUCAGAGAAGCAG: 0.393 ratio
AGCCGAGGAGGCCCCGCGCAGUGCUGCCAACGCCCCGGCGGAGAAGCUGAGGACAAGAUCUAAUUUGAAAUAUUAAAAGUGGAUACAAAACUGUUUCCGAAAUGCAGACAAUUAAGUGUG: 0.188 ratio
UUGCAUACACACACCCCCACCCCAGAGUGUUCUCAGUAUGUCAGAGAAAGUGCCACAGCAUUAGGACGGGAGCUUGGAGAACGUUUUCUAGAAAAGGGUUAGCUUCCUGUUGGCAUGAAA: 0.744 ratio
GGGUACGAUGUUUUGGCUAAUCCCCCAGGACCAGAAGACCCAGAUGAGGAAGAGGAUACCUAUAGCGAUUUGUUUGAGUUUGAGUUUGCUGAAAGCUCCCUCUUGCCGUGUUAUAACAUC: 1.2 ratio

Study 3
Target: CCNB1, cyclin fold, Cln2 fusion (human)
Technique: yeast growth competition, sequencing
Matrix: yeast
Setting: weak parent motif
Relative to: not given
Direction: higher = stronger binding
Endpoint: normalised enrichment score
Starting sequence: WEE1 docking peptide (human); HKTFRKLRLFDTP
HKTTRKLRLFDTP [F4T]: 0.808
HKTFRKLRLFDTA [P13A]: 0.575
HKTFRKRRLFDTP [L7R]: 0.748
HKTFRKLGLFDTP [R8G]: 0.22

Single results of other studies
PhoQ, residues 284 288 289 292 302 303 ASVMEA  fold induction (PhoP, residues 12 14 15 18 19 STHWV (Escherichia coli, UniProt P23836); Sort-seq, item: YFP reporter; E. coli; PhoQ-PhoP variant library, added: 10 µM Mg2+; relative to: high Mg2+ state, higher = stronger signaling): 20.2

A few entries again (study 2):
UUGCAUACACACACCCCCACCCCAGAGUGUUCUCAGUAUGUCAGAGAAAGUGCCACAGCAUUAGGACGGGAGCUUGGAGAACGUUUUCUAGAAAAGGGUUAGCUUCCUGUUGGCAUGAAA: 0.744 ratio
GGGUACGAUGUUUUGGCUAAUCCCCCAGGACCAGAAGACCCAGAUGAGGAAGAGGAUACCUAUAGCGAUUUGUUUGAGUUUGAGUUUGCUGAAAGCUCCCUCUUGCCGUGUUAUAACAUC: 1.2 ratio
